Experimental data gathered from unrelated publications.
Every numbered part comes from another study and shows a few of its results, in no order. Positions count from the first letter of the parent shown.

Set 1 — target: UBE2G1 UBC core domain (UniProt P62253); technique: yeast two-hybrid; medium: yeast; setting: mostly zero background; relative to: not given; direction: higher = stronger interaction
B1: RNF208 RING domain (UniProt Q9H0X6); chain SSAAAGEPLECPTCGHSYNVTQRRPRVLSCLHSVCEQCLQILYESCPKYKFISCPTCRRETVLFTDYG
B2: TRIM4 RING domain (UniProt Q9C037); chain EAEDIQEELTCPICLDYFQDPVSIECGHNFCRGCLHRNWAPGGGPFPCPECRHPSAPAALRP
B3: TRAF5 RING domain (UniProt O00463); chain FVERLEERYKCAFCHSVLHNPHQTGCGHRFCQHCILSLRELNTVPICPVDKEVIKSQEVFK
B4: SH3RF2 RING domain (UniProt Q8TEC5); chain DDLTLLDLLECPVCFEKLDVTAKVLPCQHTFCKPCLQRVFKAHKELRCPECRTPVFSNIEAL
B5: DTX4 RING domain (UniProt Q9Y2E6); chain QKVRHPPDEDCTICMERLTAPSGYKGPQPTVKPDLVGKLSRCGHVYHIYCLVAMYNNGNKDGSLQCPTCKTIYGVKTGTQ
B6: RNF38 RING domain (UniProt Q9H0F5); chain PNNHQSEQTLCVVCMCDFESRQLLRVLPCNHEFHAKCVDKWLKANRTCPICRADASEVHRDS
B7: TRIM5 RING domain (UniProt Q9C035); chain ILVNVKEEVTCPICLELLTQPLSLDCGHSFCQACLTANHKKSMLDKGESSCPVCRISYQPENIRP
B8: MKRN1 RING domain (UniProt Q9UHC7); chain FAVQRSKDMVCGICMEVVYEKANPSERRFGILSNCNHTYCLKCIRKWRSAKQFESKIIKSCPECRITSNFVIPSE
B9: RC3H1 RING domain (UniProt Q5TC82); chain QAPQWTDFLSCPICTQTFDETIRKPISLGCGHTVCKMCLNKLHRKACPFDQTTINTDIELL
B10: TRIML1 RING domain (UniProt Q8N9V2); chain LMENLREELTCFICLDYFSSPVTTECGHSFCLVCLLRSWEEHNTPLSCPECWRTLEGPHFQS
B11: TRIM13 RING domain (UniProt O60858); chain MELLEEDLTCPICCSLFDDPRVLPCSHNFCKKCLEGILEGSVRNSLWRPAPFKCPTCRKETSATGINS
Target sequence (chain): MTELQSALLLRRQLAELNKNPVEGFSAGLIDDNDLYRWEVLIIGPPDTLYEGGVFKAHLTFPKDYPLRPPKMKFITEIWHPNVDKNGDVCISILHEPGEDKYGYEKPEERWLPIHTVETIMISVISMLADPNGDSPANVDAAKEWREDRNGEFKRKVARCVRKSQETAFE
`B1 (RNF208 RING domain)`: “lacZ reporter activity” 0.
`B2 (TRIM4 RING domain)` — result for “lacZ reporter activity”: 0.
`B3 (TRAF5 RING domain)`: “lacZ reporter activity” 0.
Under “lacZ reporter activity”, `DHGAVGQEMCCPICCSEYVKGEVATELPCHHYFHKPCVSIWLQKSGTCPVCRCMFPPPL (PJA1 RING domain (UniProt Q8NG27))` is recorded as 0.
For `B4 (SH3RF2 RING domain)`, “lacZ reporter activity” read 0.
For `GAAPGPEAAECLVCSELALLVLFSPCQHRTVCEECARRMKKCIRCQVVVSKKLRPD (MIB2 RING domain (UniProt Q96AX9))`, “lacZ reporter activity” read 0.
For `B5 (DTX4 RING domain)`, “lacZ reporter activity” read 0.
Under “lacZ reporter activity”, `B6 (RNF38 RING domain)` is recorded as 0.
For `B7 (TRIM5 RING domain)`, “lacZ reporter activity” read 0.
For `B8 (MKRN1 RING domain)`, “lacZ reporter activity” read 0.
`QVDKAVFHMQSVKCLKCQEQKRAVLPCQHAALCELCAEGSECPICQPGRAHTLQS (UNK RING domain (UniProt Q9C0B0))` — result for “lacZ reporter activity”: 0.
For `B9 (RC3H1 RING domain)`, “lacZ reporter activity” read 0.
`B10 (TRIML1 RING domain)`: “lacZ reporter activity” 0.
Under “lacZ reporter activity”, `FQGDVDEDLICPICSGVLEEPVQAPHCEHAFCNACITQWFSQQQTCPVDRSVVTVAHLRP (RNF41 RING domain (UniProt Q9H4P4))` is recorded as 0.
`B11 (TRIM13 RING domain)`: “lacZ reporter activity” 0.

Set 2 — technique: DHFR PCA, deep sequencing; medium: yeast; added: (+)-ABA 2500 µM; relative to: wild-type fitted maximum; direction: higher = stronger binding
Target: ABI1, truncated, D143A, DHFR fusion (Arabidopsis thaliana)
Setting: methotrexate growth selection, single substitutions
Starting sequence: PYL1, truncated, DHFR fusion (Arabidopsis thaliana); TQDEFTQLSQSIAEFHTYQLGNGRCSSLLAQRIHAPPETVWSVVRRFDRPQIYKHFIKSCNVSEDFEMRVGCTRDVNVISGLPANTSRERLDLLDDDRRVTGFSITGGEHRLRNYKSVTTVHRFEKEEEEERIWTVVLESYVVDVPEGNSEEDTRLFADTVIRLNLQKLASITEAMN; partner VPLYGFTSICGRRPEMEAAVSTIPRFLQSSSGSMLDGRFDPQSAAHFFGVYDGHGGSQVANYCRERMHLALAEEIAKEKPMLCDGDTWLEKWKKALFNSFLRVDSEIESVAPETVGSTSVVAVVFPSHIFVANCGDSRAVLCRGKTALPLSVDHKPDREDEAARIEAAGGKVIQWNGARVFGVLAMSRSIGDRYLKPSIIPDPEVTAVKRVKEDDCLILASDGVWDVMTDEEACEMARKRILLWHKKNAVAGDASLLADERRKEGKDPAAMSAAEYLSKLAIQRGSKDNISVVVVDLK
For `N77R`, “relative binding score” read 99.2%.
`E139L`: “relative binding score” 90.2%.
`S87N` — result for “relative binding score”: 18.8%.
For `S27L`, “relative binding score” read 11.8%.
`N165L`: “relative binding score” 2.27%.
`R99H`: “relative binding score” 103%.
`Q2A`: “relative binding score” 99.7%.
`N61I`: “relative binding score” 101%.
`R155N`: “relative binding score” 91%.
For `G107Q`, “relative binding score” read 95.9%.
Under “relative binding score”, `E152M` is recorded as 96.7%.

Set 3 — target: CCNB3, cyclin fold, Cln2 fusion (human); technique: yeast growth competition, sequencing; medium: yeast; setting: weak parent motif; relative to: not given; direction: higher = stronger binding
Starting sequence: PKMYT1 docking peptide (human); SFEPRNLLSLFED
`R5C`: “normalised enrichment score” -0.09.
For `E3N`, “normalised enrichment score” read 0.428.
`R5T` — result for “normalised enrichment score”: 0.483.
For `L8Y`, “normalised enrichment score” read 0.534.
`L10R` — result for “normalised enrichment score”: 0.46.
For `S9R`, “normalised enrichment score” read 0.59.
`D13L`: “normalised enrichment score” 0.142.
For `E12S`, “normalised enrichment score” read 0.187.
`N6D`: “normalised enrichment score” 0.471.
Under “normalised enrichment score”, `R5Q` is recorded as 0.442.
`E3C`: “normalised enrichment score” 0.571.
Under “normalised enrichment score”, `F11W` is recorded as 1.19.
`E12A`: “normalised enrichment score” 0.395.
`N6Y`: “normalised enrichment score” 0.613.
`R5K F11L`: “normalised enrichment score” -0.358.
Under “normalised enrichment score”, `P4R` is recorded as 0.408.
`F11N` — result for “normalised enrichment score”: -0.016.
`L8D`: “normalised enrichment score” 0.0789.
Under “normalised enrichment score”, `P4K` is recorded as 0.523.
For `L8F`, “normalised enrichment score” read 0.621.
`L7E`: “normalised enrichment score” -0.288.
For `S1Q`, “normalised enrichment score” read 0.395.
`E3M` — result for “normalised enrichment score”: 0.387.
For `R5Y`, “normalised enrichment score” read 0.456.
`E3H`: “normalised enrichment score” 0.555.

Set 4 — target: NFE2L1, bZIP domain (human); technique: DHFR protein complementation; medium: yeast; relative to: wild-type JUN-FOS pair; direction: higher = stronger binding
Setting: single substitutions, most at no-binding floor
Starting sequence: JUN, bZIP domain (human); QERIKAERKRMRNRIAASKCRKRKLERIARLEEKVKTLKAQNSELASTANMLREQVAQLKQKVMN; partner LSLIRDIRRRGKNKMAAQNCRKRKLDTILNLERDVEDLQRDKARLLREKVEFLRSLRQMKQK
`N42Q` has a binding fitness of -1.45 natural log.
`R30G` gave a binding fitness of -1.36 natural log.
For `R30K`, the binding fitness was -1.56 natural log.
For `Q41K`, the binding fitness was -1.45 natural log.
The binding fitness of `S47L` is reported as -1.51 natural log.
`E33V` gave a binding fitness of -1.47 natural log.
The binding fitness of `E32S` is reported as -1.35 natural log.
With `L31M` the binding fitness was -1.53 natural log.
The binding fitness of `Q41H` is reported as -1.16 natural log.
`S47G` gave a binding fitness of -1.43 natural log.
For `V56H`, the binding fitness was -1.48 natural log.
The binding fitness of `E32K` is reported as -1.45 natural log.
The binding fitness of `L45Q` is reported as -1.53 natural log.
`V56K` has a binding fitness of -1.53 natural log.
For `K34V`, the binding fitness was -1.54 natural log.

Excerpt of the above (set 3):
For `E12S`, “normalised enrichment score” read 0.187.
`N6D`: “normalised enrichment score” 0.471.
Under “normalised enrichment score”, `R5Q` is recorded as 0.442.
`E3C`: “normalised enrichment score” 0.571.
Under “normalised enrichment score”, `F11W` is recorded as 1.19.
`E12A`: “normalised enrichment score” 0.395.
